Results collected from several papers.
A part holds a random share of what one study measured. Substitutions count along the parent as printed.

Set 1
Target: ABI1, truncated, D143A, DHFR fusion (Arabidopsis thaliana)
Technique: DHFR PCA, deep sequencing
Sample: yeast
Notes: methotrexate growth selection, single substitutions
With: (+)-ABA 58 µM
Relative to: wild-type fitted maximum
Reading: higher = stronger binding
Starting sequence: PYL1, truncated, DHFR fusion (Arabidopsis thaliana); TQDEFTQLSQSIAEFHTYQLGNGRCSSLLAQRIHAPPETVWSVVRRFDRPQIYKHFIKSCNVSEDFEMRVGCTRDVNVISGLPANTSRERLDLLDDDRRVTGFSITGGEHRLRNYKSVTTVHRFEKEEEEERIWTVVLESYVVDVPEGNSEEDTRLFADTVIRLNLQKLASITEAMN; partner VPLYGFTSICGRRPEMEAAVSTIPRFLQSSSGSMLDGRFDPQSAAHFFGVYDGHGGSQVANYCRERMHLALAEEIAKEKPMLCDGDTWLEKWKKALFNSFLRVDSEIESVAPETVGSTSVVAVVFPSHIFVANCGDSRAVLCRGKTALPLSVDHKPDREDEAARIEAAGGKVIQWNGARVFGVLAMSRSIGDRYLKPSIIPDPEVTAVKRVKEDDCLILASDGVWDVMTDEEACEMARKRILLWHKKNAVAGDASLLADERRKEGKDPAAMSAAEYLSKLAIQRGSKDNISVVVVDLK
`D95A` — result for “relative binding score”: 30.7%.
For `W134F`, “relative binding score” read 94.3%.
`W41A` — result for “relative binding score”: 3.3%.
For `M68S`, “relative binding score” read 63.2%.
For `T173Q`, “relative binding score” read 16.8%.
For `R111H`, “relative binding score” read 28.7%.
Under “relative binding score”, `A35R` is recorded as 7.29%.
For `Y115C`, “relative binding score” read 9.72%.
For `V43A`, “relative binding score” read 45.9%.
For `F157W`, “relative binding score” read 12.4%.
`I12A`: “relative binding score” 41%.
`R155K`: “relative binding score” 83.5%.
`T17Y` — result for “relative binding score”: 52.2%.
Under “relative binding score”, `T86C` is recorded as 80.9%.
`H55D` — result for “relative binding score”: 68.2%.
For `F124Q`, “relative binding score” read 83.1%.
For `Y141M`, “relative binding score” read 10.4%.
Under “relative binding score”, `T160S` is recorded as 62.7%.
For `T119M`, “relative binding score” read 80%.
For `E128D`, “relative binding score” read 97.9%.
Under “relative binding score”, `R49V` is recorded as 68.9%.
`V76A` — result for “relative binding score”: 24.9%.
`T106A`: “relative binding score” 56.6%.
Under “relative binding score”, `F66D` is recorded as 76.2%.

Set 2
Target: Interferon regulatory factor 5, full length, phosphomimetic (IRF5, Homo sapiens, UniProt Q13568-2, residues 1-514, S451D/S453D/S456D/S462D)
Technique: protein-binding microarray
Molecule type: double-stranded DNA, one strand shown
Sample: in vitro
Concentration: 940 nM top
Notes: 60-bp whole probe
With: salmon DNA 0.4 mg/ml
Relative to: random background probes
Reading: higher = stronger binding
Constant ends, left off below: GCCTAGCAC … GTCTTGATTCGCTTGACGCTGCTG
`TCATTTTTCTCACCACATACTGTGCTA` — result for “fitted relative affinity”: 1.74 z-score.
Under “fitted relative affinity”, `TTCATTCCTGATCTCTGGTCGTGCTAG` is recorded as 0.348 z-score.
`TTAGATATCGGGACTTGATTAGTGCTA` — result for “fitted relative affinity”: -0.0511 z-score.
`GAGGGTCTCCTACTGCTGACGTGCTAG`: “fitted relative affinity” -0.308 z-score.
For `GAAGGACTGGGTATCGGGACGTGCTAG`, “fitted relative affinity” read 0.473 z-score.
Under “fitted relative affinity”, `CAAGTTTCTCCTTTCGGAATGTGCTAG` is recorded as 4.15 z-score.
Under “fitted relative affinity”, `GACGATCTCGGGTTTCGAGACGTGCTA` is recorded as 2.16 z-score.
Under “fitted relative affinity”, `GAGATTTCCATTATTGCTTCGTGCTAG` is recorded as 0.7 z-score.
`TTCTCTATTGCTTTCTCTTTGTGCTAG`: “fitted relative affinity” 2.78 z-score.
Under “fitted relative affinity”, `TTAGGCATCCTTTTCCTTTAGTGCTAG` is recorded as -0.278 z-score.
Under “fitted relative affinity”, `GACGCACTGGGGACTGGGGACGTGCTA` is recorded as 0.0203 z-score.
`GACGATTTCAGTTCCGGGACGTGCTAG`: “fitted relative affinity” 0.953 z-score.
Under “fitted relative affinity”, `TCAAGAGTAGCTTTCTGACTGTGCTAG` is recorded as -0.284 z-score.
`TTACAACTGAGTATCGATTAGTGCTAG`: “fitted relative affinity” 4.9 z-score.
Under “fitted relative affinity”, `GACGGTTTCCTTACCCTGACGTGCTAG` is recorded as 1.26 z-score.
`TTAGGACTGGGTTTCGCTTAGTGCTAG`: “fitted relative affinity” 3.24 z-score.
`GACGGTGTCCTTTCCCTGACGTGCTAG` — result for “fitted relative affinity”: -0.0226 z-score.
For `TGTTACATTTATATCTTTGCGTGCTAG`, “fitted relative affinity” read 0.8 z-score.
`TTAGTACTGGGGTTTCGGTTAGTGCTA` — result for “fitted relative affinity”: 5.8 z-score.

Set 3
Target: DBP, bZIP domain (human)
Technique: DHFR protein complementation
Sample: yeast
Notes: single substitutions, most at no-binding floor
Relative to: wild-type JUN-FOS pair
Reading: higher = stronger binding
Starting sequence: JUN, bZIP domain (human); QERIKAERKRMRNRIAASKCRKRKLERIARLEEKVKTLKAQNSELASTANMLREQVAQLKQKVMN; partner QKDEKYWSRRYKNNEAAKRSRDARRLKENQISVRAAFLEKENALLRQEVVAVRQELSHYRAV
`L45W` has a binding fitness of -1.37 natural log.
The binding fitness of `Q41F` is reported as -1.47 natural log.
`L45P` has a binding fitness of -1.5 natural log.
`S43P` gave a binding fitness of -1.46 natural log.
`E44G` gave a binding fitness of -1.45 natural log.
`V35R` has a binding fitness of -1.43 natural log.
For `K39F`, the binding fitness was -1.42 natural log.
With `E54F` the binding fitness was -1.56 natural log.
For `K34V`, the binding fitness was -1.32 natural log.
`N42F` has a binding fitness of -1.5 natural log.
`I28P` gave a binding fitness of -1.44 natural log.
`T48D` has a binding fitness of -1.19 natural log.
`Q55W` has a binding fitness of -1.29 natural log.
`L38H` has a binding fitness of -1.55 natural log.
The binding fitness of `I28F` is reported as -1.48 natural log.
`E33C` gave a binding fitness of -1.39 natural log.
With `L52Y` the binding fitness was -1.46 natural log.
The binding fitness of `A46C` is reported as -1.51 natural log.

Set 4
Target: CCNB3, cyclin fold, Cln2 fusion (human)
Technique: yeast growth competition, sequencing
Sample: yeast
Notes: strong parent motif
Relative to: not given
Reading: higher = stronger binding
Starting sequence: PKN2 docking peptide (human); VSAVRKLDFSDTM; partner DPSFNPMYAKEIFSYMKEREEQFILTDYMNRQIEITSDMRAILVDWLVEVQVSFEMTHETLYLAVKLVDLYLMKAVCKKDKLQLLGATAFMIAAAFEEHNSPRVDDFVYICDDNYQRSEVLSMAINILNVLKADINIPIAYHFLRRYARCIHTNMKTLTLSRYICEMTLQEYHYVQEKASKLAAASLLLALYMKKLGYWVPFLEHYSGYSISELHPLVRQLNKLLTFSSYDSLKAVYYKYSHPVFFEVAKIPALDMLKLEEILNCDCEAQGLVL
`T12Q`: “normalised enrichment score” 1.38.
For `D8W`, “normalised enrichment score” read 0.577.
For `F9T`, “normalised enrichment score” read -0.154.
`A3H` — result for “normalised enrichment score”: 0.529.
`D8M`: “normalised enrichment score” 0.393.
`R5V` — result for “normalised enrichment score”: 0.125.
`S2M` — result for “normalised enrichment score”: 1.41.
Under “normalised enrichment score”, `R5A` is recorded as 0.45.
`V4C` — result for “normalised enrichment score”: 2.37.
`F9N` — result for “normalised enrichment score”: 0.133.
`F9V` — result for “normalised enrichment score”: 0.193.
`T12G` — result for “normalised enrichment score”: 1.41.
`T12Y` — result for “normalised enrichment score”: 1.79.
`D8T` — result for “normalised enrichment score”: 0.798.
Under “normalised enrichment score”, `V4W` is recorded as 1.69.
Under “normalised enrichment score”, `F9A` is recorded as -0.251.
`F9L`: “normalised enrichment score” 0.143.
`T12K` — result for “normalised enrichment score”: 1.95.
`R5N`: “normalised enrichment score” -0.169.
`S2F`: “normalised enrichment score” 1.2.
For `L7K`, “normalised enrichment score” read 0.247.
`V4P` — result for “normalised enrichment score”: 0.392.
Under “normalised enrichment score”, `D11G` is recorded as 1.94.
Under “normalised enrichment score”, `S2Y` is recorded as 1.5.

Set 5
Target: Sal-like protein 4, full length isoform A (SALL4, Homo sapiens, UniProt Q9UJQ4, residues 1-1053)
Chain of UniProt Q9UJQ4 (whole entry, looked up): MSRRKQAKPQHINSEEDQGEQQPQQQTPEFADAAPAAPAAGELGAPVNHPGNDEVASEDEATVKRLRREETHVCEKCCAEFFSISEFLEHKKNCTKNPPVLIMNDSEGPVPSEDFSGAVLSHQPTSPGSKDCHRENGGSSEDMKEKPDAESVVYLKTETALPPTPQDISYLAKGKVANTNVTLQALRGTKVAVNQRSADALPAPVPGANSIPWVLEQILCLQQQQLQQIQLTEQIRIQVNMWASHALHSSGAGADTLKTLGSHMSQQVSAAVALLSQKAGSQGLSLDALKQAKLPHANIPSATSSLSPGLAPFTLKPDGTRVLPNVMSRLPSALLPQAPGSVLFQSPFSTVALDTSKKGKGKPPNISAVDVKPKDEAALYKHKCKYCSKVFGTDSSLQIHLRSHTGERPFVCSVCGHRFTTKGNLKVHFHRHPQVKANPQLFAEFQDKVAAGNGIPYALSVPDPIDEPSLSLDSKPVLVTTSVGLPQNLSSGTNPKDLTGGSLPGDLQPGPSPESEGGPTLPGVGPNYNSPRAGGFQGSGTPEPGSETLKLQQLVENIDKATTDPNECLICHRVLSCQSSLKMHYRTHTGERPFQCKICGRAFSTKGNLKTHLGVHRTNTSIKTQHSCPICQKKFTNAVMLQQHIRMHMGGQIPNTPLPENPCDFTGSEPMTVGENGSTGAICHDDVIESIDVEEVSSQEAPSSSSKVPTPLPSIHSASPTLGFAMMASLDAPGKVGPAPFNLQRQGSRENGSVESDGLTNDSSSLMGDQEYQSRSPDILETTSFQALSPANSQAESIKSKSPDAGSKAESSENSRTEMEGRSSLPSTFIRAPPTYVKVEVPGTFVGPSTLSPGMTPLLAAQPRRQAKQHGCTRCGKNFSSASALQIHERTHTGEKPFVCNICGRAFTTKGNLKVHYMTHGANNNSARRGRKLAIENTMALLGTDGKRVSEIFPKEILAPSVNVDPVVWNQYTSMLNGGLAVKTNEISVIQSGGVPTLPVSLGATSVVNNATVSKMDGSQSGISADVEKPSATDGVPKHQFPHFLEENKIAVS
Technique: universal PBM
Molecule type: double-stranded DNA, one strand shown
Sample: in vitro
Concentration: 600 nM
Notes: 8-mer, flanks averaged, mean of replicates
Reading: higher = stronger binding
`ATTGGTCA` has an E-score of 0.0661.
For `AACGGGCG`, the E-score was -0.193.
For `CTTATTTA`, the E-score was 0.263.
The E-score of `AACGATGT` is reported as 0.162.
With `CACAGTGG` the E-score was -0.0693.
The E-score of `AGGTTAAC` is reported as 0.0972.
For `CTTACTGA`, the E-score was 0.0744.
For `ATCATCGG`, the E-score was 0.0643.
With `AATCGTGG` the E-score was 0.11.
The E-score of `ATGTTGAA` is reported as 0.193.
The E-score of `GACCCGGA` is reported as -0.389.
The E-score of `TATACGAA` is reported as 0.248.
With `GCTGTAAC` the E-score was -0.0474.
`ATAGTAGC` has an E-score of 0.162.
For `GTCCCCAA`, the E-score was -0.102.
For `AGGGCACG`, the E-score was -0.267.
For `ATGGACTC`, the E-score was -0.0465.
`ATGCAGCA` gave an E-score of -0.0663.
`CTCCGGGA` has an E-score of -0.342.
The E-score of `CTGGATCA` is reported as -0.0328.
`TGACCCAA` has an E-score of 0.0073.
For `GACCAGCA`, the E-score was -0.242.
The E-score of `GAAGCACA` is reported as 0.0481.
With `GTCCATGA` the E-score was -0.00671.
For `AAGTCTCT`, the E-score was 0.0419.
